Results collected from several papers.
Parts stem from different laboratories: compare values within a part only.

Study 1
Target: Sal-like protein 4, full length isoform B (SALL4, Homo sapiens, UniProt Q9UJQ4-2, residues 1-616)
Method: universal PBM
Molecule type: double-stranded DNA, one strand shown
Sample: in vitro
Concentration: not given
Notes: 8-mer, flanks averaged, mean of replicates
Direction: higher = stronger binding
Endpoint: E-score
Construct (chain): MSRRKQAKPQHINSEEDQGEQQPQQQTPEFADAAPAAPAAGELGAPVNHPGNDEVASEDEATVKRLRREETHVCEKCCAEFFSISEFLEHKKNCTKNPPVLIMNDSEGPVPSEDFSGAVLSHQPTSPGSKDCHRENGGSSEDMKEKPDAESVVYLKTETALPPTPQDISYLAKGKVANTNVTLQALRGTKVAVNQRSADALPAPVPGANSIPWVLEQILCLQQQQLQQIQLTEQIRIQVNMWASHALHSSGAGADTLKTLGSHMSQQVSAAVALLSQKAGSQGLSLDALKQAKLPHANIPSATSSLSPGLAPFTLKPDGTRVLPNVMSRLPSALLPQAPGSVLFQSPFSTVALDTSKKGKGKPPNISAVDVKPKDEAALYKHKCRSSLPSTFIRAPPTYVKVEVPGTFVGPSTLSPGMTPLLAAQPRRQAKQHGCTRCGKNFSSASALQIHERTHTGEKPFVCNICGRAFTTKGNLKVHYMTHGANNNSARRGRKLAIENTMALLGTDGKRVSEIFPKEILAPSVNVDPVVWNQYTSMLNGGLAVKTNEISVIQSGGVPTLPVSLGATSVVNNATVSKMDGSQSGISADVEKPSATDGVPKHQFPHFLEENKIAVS
CTGAACTA: -0.0563
CAGCTGGA: -0.0817
GTACTAAC: 0.0433
ACGACGGG: -0.107
AGCCCGCA: -0.267
ACAGCTTC: -0.0142
AATAAATC: 0.244
CGATCGCG: -0.0876
GGGGGTAC: -0.166
CTCTCTAA: -0.123
TACCCTGA: -0.0963
TGTCAGAA: 0.161
CGGATGGA: -0.00876
AGGCGACC: -0.246
CACCTTCC: -0.18
ACTGGTCT: -0.161
CTTCACCA: -0.0942
CACGTTGG: -0.2
GGAATGTA: -0.0125
ACTTAGCC: -0.12

Study 2
Target: Max-binding protein MNT, bHLH-zipper, MAX partner unstated (MNT, Homo sapiens, UniProt Q99583, residues 220-300)
Method: protein-binding microarray
Molecule type: double-stranded DNA, one strand shown
Sample: in vitro
Concentration: not given
Notes: k-mer, scored over probes, only values ≥0.25
Direction: higher = stronger binding
Endpoint: E-score
Target sequence (chain): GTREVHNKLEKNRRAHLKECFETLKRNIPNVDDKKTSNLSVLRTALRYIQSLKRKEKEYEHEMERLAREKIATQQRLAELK
CACATTGC: 0.324
CACGGGGC: 0.35
CTGCGCAC: 0.254
CACGCGAC: 0.45
GTGCAACA: 0.271
CGGCGTGC: 0.4
AACCGCGT: 0.346
ACGACGTG: 0.371
ACATGGAA: 0.351
AGGCGTGC: 0.37
TCACGTGA: 0.489
ACGTGGCT: 0.45
GCGCCGCA: 0.292
CATGGCCA: 0.253
GCGTGCAA: 0.412
ACGTGAGT: 0.397
CGCAACAC: 0.251
ATGTGTGG: 0.277
ACTCTCCC: 0.284
CACATGCC: 0.434
ATGCATGA: 0.3
CGCGCGCG: 0.304
CACGCGGA: 0.47
CAGCGTGC: 0.414

Study 3
Target: Centromere-binding protein 1, full length, His-tagged (CBF1, Saccharomyces cerevisiae, UniProt P17106, residues 1-351)
Sequence of UniProt P17106 (whole entry, looked up): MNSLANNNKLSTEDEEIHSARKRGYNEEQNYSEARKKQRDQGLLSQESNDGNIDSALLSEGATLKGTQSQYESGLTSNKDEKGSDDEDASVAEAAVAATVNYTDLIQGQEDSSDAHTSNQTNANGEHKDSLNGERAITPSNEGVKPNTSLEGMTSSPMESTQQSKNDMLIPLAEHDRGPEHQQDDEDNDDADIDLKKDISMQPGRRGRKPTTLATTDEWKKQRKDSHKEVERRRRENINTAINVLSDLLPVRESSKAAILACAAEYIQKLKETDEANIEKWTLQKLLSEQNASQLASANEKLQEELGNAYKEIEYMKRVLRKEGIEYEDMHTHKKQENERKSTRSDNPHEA
Method: competition protein-binding microarray
Molecule type: double-stranded DNA, one strand shown
Sample: in vitro
Concentration: 2 µM
Notes: whole 60-bp probe, lowest competitor level
With: Pho4 competitor, 0.05 µM
Direction: higher = stronger binding
Endpoint: fluorescence intensity
Constant ends, left off below: … GTCTTGATTCGCTTGACGCTGCTG
GTCTTGTCTCATTGCAACGTGGGTGTCCCCACTTCA: 91.7 a.u.
CTTTCCCGATCTTTTCACGTGAGGTTAGCACATTTG: 915 a.u.
AAGGGAAAAAGCTTTGGCGTGCTTTACGATATGGCT: 62.8 a.u.
TTAATCAATGATTTACCCGTGGGACCCAAGTCCAGT: 67.3 a.u.
AAATTACTAAGTTGGGAGGTGGGTGACGCCGTATGA: 62.9 a.u.
TGATGTTTTGACTGTCATGCTACAAATGTTGGATGA: 87.5 a.u.
AAAGCGGTAATTTTTCACGTGGCCTCACATATCTAT: 1150 a.u.
GTCTTGTCTCATTGTCCGGTGGGTGTCCCCACTTCA: 81.7 a.u.
TTATGACTGCGAATGTCCGTGCAATGCGGCCCAATT: 55.2 a.u.
GAGGCACTGCCTCTCCGCGTGAATGTCACTGAGTCG: 68.2 a.u.
AAATAAGGATTTTTGCACGTATATCCAACAGAATTA: 100 a.u.
CTTTCCCGATCTTGTCAAGTGGGTGTAGCACATTTG: 65.3 a.u.
GTAACAGGTTTCCATCACGTGCTTTTTAGGGTTTTG: 3770 a.u.
TATGTAAAAAATCCGCACGTTGCCAGATACATACCG: 127 a.u.
GTCTTGTCTCATTGAAAGGTGGGTGTCCCCACTTCA: 73.4 a.u.
ATGTCCATTCCCTGGCACGTGATGGCGAGTACTTCC: 5410 a.u.
TCGAGGCAAGCTCAAAACGTGACGGCTACACCCCCT: 401 a.u.
CGGGGTTAAGTTTTTCACGTGGATTGCTTGCAGCAG: 463 a.u.
CTGAGCTTAATAAGCACCGTGCGATTACCTTCGTTT: 68.2 a.u.

Study 4
Target: Ras GTPase-activating protein-binding protein 1, C-terminal RGG region (G3BP1, Homo sapiens, UniProt Q13283)
Sequence of UniProt Q13283 (whole entry, looked up): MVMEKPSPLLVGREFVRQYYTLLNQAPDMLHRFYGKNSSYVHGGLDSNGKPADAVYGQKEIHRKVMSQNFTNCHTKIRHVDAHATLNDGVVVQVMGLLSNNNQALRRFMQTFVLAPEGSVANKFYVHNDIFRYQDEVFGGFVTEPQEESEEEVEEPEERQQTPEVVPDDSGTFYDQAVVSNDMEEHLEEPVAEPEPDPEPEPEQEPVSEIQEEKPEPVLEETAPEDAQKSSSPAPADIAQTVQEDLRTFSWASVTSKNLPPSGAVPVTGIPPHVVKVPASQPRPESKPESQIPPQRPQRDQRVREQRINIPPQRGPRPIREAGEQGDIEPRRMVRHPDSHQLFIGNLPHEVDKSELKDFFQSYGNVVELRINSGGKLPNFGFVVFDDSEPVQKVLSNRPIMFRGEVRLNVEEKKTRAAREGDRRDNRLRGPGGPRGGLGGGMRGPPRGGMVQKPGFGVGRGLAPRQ
Method: RNA Bind-n-Seq
Molecule type: RNA
Sample: in vitro
Concentration: 1 µM
Notes: whole 134-nt RNA, ends assumed
With: 150 mM KCl
Reference: input library
Direction: higher = stronger binding
Endpoint: log2 enrichment
Constant ends, left off below: GGGAGUUCUACAGUCCGACGAUC … UGGAAUUCUCGGGUGUCAAGG
AGUCCUGUGCUACACAUCGUAUGUACCGAAUCAAACCCAAACCCCCAAACCCCCAAAAAAGUAUUAUGUUACGCCGUUCGGAUCUGCACU: -0.972
CUCAAGUCCUGUGCUACACAUCGUAUGUACCGAAUCGGGGUGGGGUGGGUGGGGAAAGUAUUAUGUUACGCCGUUCGGAUCUGCACUUCC: 1.33
AAAAUGCAGGUGGGCAUCUUUGGGAAGUGGGGCAAGGGGGGGAUAGGGAGGGGGGUAACACUUUGGGAACAGGUGGUCCCAGGUCGUUUC: -1.14
GCAGGAAGUAAAAACAAAUGGAAAUGCUUCCGAUAGUGGCAGGGGUGGGGGUUGCUAAGGAAAGGGUGGGAUGGGAGUGGGUAAAGAGUU: 1.96
GCAGGAAGUAAAAACAAAUGGAAAUGCUUCGGAUAGUGGCAGGGGUGGGGGUUGCUUAGGAAAGGGUGGGAUGGGAGUGGGUAAAGAGUU: 1.95
UGGAAGCUCAUACGACUGUGAAAGAAGCUGAGGAUGACAACAUCUCGGUCACAAUCCAGGCUGAAGAUGCCAUCACUCUGGAUUUUGAUG: -1.77
GCAGAAAGUAAAAACAAAUGGAAAUGCUUCGGAUAGUGGCAGGGGUGGGGGUUGCUAAGGAAAGGGUGGGAUGGGAGUGGGUAAAGAGUU: 1.56
GUCCUGUGCUACACAUCGUAUGUACCGAAUCGGGGAAAGGGGAAAAAGGGGUUUGGGGAAAGUAUUAUGUUACGCCGUUCGGAUCUGCAC: 2.75
GCAGGAAGUAAAAACAAAUGGAAAUGCUUCGGAUAGUGGCAGGGGUGGGGGUUGCUAAGGAAAGGGUGGGAUGGGAGUGUGUAAAGAGUU: 1.71

For quick reference, copied from above (study 1):
CTGAACTA: -0.0563
CACGTTGG: -0.2
CTTCACCA: -0.0942
AGCCCGCA: -0.267
ACTGGTCT: -0.161
GGAATGTA: -0.0125
TGTCAGAA: 0.161
ACTTAGCC: -0.12
CGATCGCG: -0.0876
ACAGCTTC: -0.0142
CACCTTCC: -0.18
